Measurements gathered from unrelated publications.

Compound | organism | test | test system | conditions | MIC
N=C(N)c1ccc(OCCCCCOc2ccc(C(=N)N)cc2)cc1 | Escherichia coli | – | 552100 | compound alone | 200 µg/mL
CC1(C)S[C@@H]2[C@H](NC(=O)[C@H](N)c3ccccc3)C(=O)N2[C@H]1C(=O)O | Bordetella bronchiseptica | – | ATCC 10580 | 16 h | 32 µg/mL
CC[C@H]1OC(=O)[C@H](C)[C@@H](O[C@H]2C[C@@](C)(OC)[C@@H](O)[C@H](C)O2)[C@H](C)[C@@H](O[C@@H]2O[C@H](C)C[C@H](N(C)C)[C@H]2O)[C@](C)(O)C[C@@H](C)CN(C)[C@H](C)[C@@H](O)[C@]1(C)O | Enterobacter cloacae | – | BNCC 185928 | – | 32 µg/mL
CNC(C)C1CCC(N)C(OC2C(N)CC(N)C(OC3OCC(C)(O)C(NC)C3O)C2O)O1 (stereo not drawn) | Pseudomonas aeruginosa | – | clinical isolate RKI-No_613/16 | – | 8 µg/mL
C[C@H]1COc2c(N3CCN(C)CC3)c(F)cc3c(=O)c(C(=O)O)cn1c23 | Enterobacter cloacae | agar dilution | CDC 1000654 | – | 32 µg/mL
CCCCCCCCCC(=O)N[C@@H](Cc1c[nH]c2ccccc12)C(=O)N[C@H](CC(N)=O)C(=O)N[C@@H](CC(=O)O)C(=O)N[C@@H]1C(=O)NCC(=O)N[C@@H](CCCN)C(=O)N[C@@H](CC(=O)O)C(=O)N[C@H](C)C(=O)N[C@@H](CC(=O)O)C(=O)NCC(=O)N[C@H](CO)C(=O)N[C@@H]([C@H](C)CC(=O)O)C(=O)N[C@@H](CC(=O)c2ccccc2N)C(=O)O[C@@H]1C | Staphylococcus aureus | – | SH1000 | with: N-acetylsphingosine, molar ratio 0.5 | 1 µg/mL
CC1(C)SC2C(NC(=O)C(NC(=O)C3=C(O)C4(CC4)NC3=O)c3ccccc3)C(=O)N2C1C(=O)O (stereo not drawn) | Escherichia coli | broth microdilution | ATCC 25922 wild type | no clavulanic acid | 25 µg/mL
CN(C)[C@@H]1C(O)=C(C(N)=O)C(=O)[C@@]2(O)C(O)=C3C(=O)c4c(O)cccc4[C@@](C)(O)[C@H]3C[C@@H]12 | Enterobacter cloacae | – | BNCC 185928 | – | 2 µg/mL
Cc1cc(-c2cn[nH]c2-c2cccc(OCc3cccc(C#N)c3)c2)cc(C)n1 | Enterobacter cloacae | broth microdilution | ATCC BAA-2468 | – | 4 µg/mL
CC(=O)NC[C@H]1CN(c2ccc(N3CCOCC3)c(F)c2)C(=O)O1 | Bacteroides fragilis | – | HM-714 | – | 5.93 µM
N=C(N)c1ccc(OCc2ccc(Br)cc2COc2ccc(C(=N)N)cc2)cc1 | Escherichia coli | – | 552100 | compound alone | > 200 µg/mL
C[C@@H](O)[C@H]1C(=O)N2C(C(=O)O)=C(S[C@@H]3CN[C@H](C(=O)N(C)C)C3)[C@H](C)[C@H]12 | Morganella morganii | broth microdilution | clinical isolate RKI 599/16 | – | > 64 µg/mL
CC(=O)NC[C@H]1CN(c2ccc(N3CCOCC3)c(F)c2)C(=O)O1 | Staphylococcus aureus | broth microdilution | MRSA NRS384 USA300 | – | 2 µM
CC[C@H](C)[C@H](NC(=O)[C@H](CCCCN)NC(=O)[C@H](CCC(=O)O)NC(=O)[C@H](CCCCN)NC(=O)[C@H](CO)NC(=O)[C@H](CCCCN)NC(=O)[C@H](CCCNC(=N)N)NC(=O)[C@H](Cc1ccccc1)NC(=O)[C@H](Cc1ccccc1)NC(=O)[C@H](CC(=O)O)NC(=O)CNC(=O)[C@H](CC(C)C)NC(=O)[C@@H](N)CC(C)C)C(=O)NCC(=O)N[C@@H](CCCCN)C(=O)N[C@@H](CCC(=O)O)C(=O)N[C@@H](Cc1ccccc1)C(=O)N[C@@H](CCCCN)C(=O)N[C@@H](CCCNC(=N)N)C(=O)N[C@H](C(=O)N[C@H](C(=O)N[C@@H](CCC(N)=O)C(=O)N[C@@H](CCCNC(=N)N)C(=O)N[C@H](C(=O)N[C@@H](CCCCN)C(=O)N[C@@H](CC(=O)O)C(=O)N[C@@H](Cc1ccccc1)C(=O)N[C@@H](CC(C)C)C(=O)N[C@@H](CCCNC(=N)N)C(=O)N[C@@H](CC(N)=O)C(=O)N[C@@H](CC(C)C)C(=O)N[C@H](C(=O)N1CCC[C@H]1C(=O)N[C@@H](CCCNC(=N)N)C(=O)N[C@H](C(=O)N[C@@H](CCC(=O)O)C(=O)N[C@@H](CO)C(=O)O)[C@@H](C)O)C(C)C)[C@@H](C)CC)C(C)C)[C@@H](C)CC | Bordetella bronchiseptica | broth microdilution | ATCC 10580 | – | 28.5 µM
N=C(N)c1ccc(OCc2ccccc2COc2ccc(C(=N)N)cc2)cc1 | Escherichia coli | – | mcr-2 polymyxin-resistant | 20 h, compound alone | > 200 µg/mL
CN[C@H](CC(C)C)C(=O)N[C@H]1C(=O)N[C@@H](CC(N)=O)C(=O)N[C@H]2C(=O)N[C@H]3C(=O)N[C@H](C(=O)N[C@H](C(=O)O)c4cc(O)cc(O)c4-c4cc3ccc4O)[C@H](O)c3ccc(c(Cl)c3)Oc3cc2cc(c3O[C@@H]2O[C@H](CO)[C@@H](O)[C@H](O)[C@H]2O[C@H]2C[C@](C)(N)[C@H](O)[C@H](C)O2)Oc2ccc(cc2Cl)[C@H]1O | Bordetella bronchiseptica | – | ATCC 10580 | 16 h | 4 µg/mL
N=C(N)c1cccc(OCc2ccc(COc3cccc(C(=N)N)c3)cc2)c1 | Escherichia coli | – | BW25113 | compound alone, novobiocin checkerboard | > 200 µg/mL
CC1(C)SC2C(NC(=O)C(NC(=O)C3=C(O)C(Cc4ccccc4)NC3=O)c3ccccc3)C(=O)N2C1C(=O)O (stereo not drawn) | Escherichia coli | broth microdilution | BW25113 wild type | 18 h | 25 µg/mL
CN(C)[C@@H]1C(O)=C(C(N)=O)C(=O)[C@@]2(O)C(O)=C3C(=O)c4c(O)cccc4[C@@](C)(O)[C@H]3C[C@@H]12 | Acinetobacter calcoaceticus | broth microdilution | 150 | – | 2 µg/mL
Cc1ccc(CCC(=O)Nc2nnc(S(N)(=O)=O)s2)cc1 | Bacteroides fragilis | – | HM-714 | – | > 784 µM
CNC(C)C1CCC(N)C(OC2C(N)CC(N)C(OC3OCC(C)(O)C(NC)C3O)C2O)O1 (stereo not drawn) | Enterobacter cloacae | – | BNCC 185928 | – | 4 µg/mL
N=C(N)c1ccc(OCc2cc(Br)cc(COc3ccc(C(=N)N)cc3)c2)cc1 | Escherichia coli | – | BW25113 | compound alone, with: erythromycin checkerboard | > 100 µg/mL
CO/N=C(\C(=O)N[C@@H]1C(=O)N2C(C(=O)O)=CCS[C@H]12)c1csc(N)n1 | Enterobacter cloacae | – | BNCC 185928 | – | 4 µg/mL
Cc1c(CN(C)C(=O)/C=C/c2cnc3c(c2)CC(CCN)C(=O)N3)oc2ccccc12.Cl (stereo not drawn) | Enterobacter cloacae | broth microdilution | BAA-2468 | – | 8 µg/mL

Some of these lines once more:
Compound | organism | test | test system | conditions | MIC
CC1(C)S[C@@H]2[C@H](NC(=O)[C@H](N)c3ccccc3)C(=O)N2[C@H]1C(=O)O | Bordetella bronchiseptica | – | ATCC 10580 | 16 h | 32 µg/mL
CC[C@H]1OC(=O)[C@H](C)[C@@H](O[C@H]2C[C@@](C)(OC)[C@@H](O)[C@H](C)O2)[C@H](C)[C@@H](O[C@@H]2O[C@H](C)C[C@H](N(C)C)[C@H]2O)[C@](C)(O)C[C@@H](C)CN(C)[C@H](C)[C@@H](O)[C@]1(C)O | Enterobacter cloacae | – | BNCC 185928 | – | 32 µg/mL
N=C(N)c1ccc(OCc2ccccc2COc2ccc(C(=N)N)cc2)cc1 | Escherichia coli | – | mcr-2 polymyxin-resistant | 20 h, compound alone | > 200 µg/mL
